Measurements collected from several papers.
Each line is one published result; not all experiments were run side by side. ± marks the error that the study gave.
T1: itself; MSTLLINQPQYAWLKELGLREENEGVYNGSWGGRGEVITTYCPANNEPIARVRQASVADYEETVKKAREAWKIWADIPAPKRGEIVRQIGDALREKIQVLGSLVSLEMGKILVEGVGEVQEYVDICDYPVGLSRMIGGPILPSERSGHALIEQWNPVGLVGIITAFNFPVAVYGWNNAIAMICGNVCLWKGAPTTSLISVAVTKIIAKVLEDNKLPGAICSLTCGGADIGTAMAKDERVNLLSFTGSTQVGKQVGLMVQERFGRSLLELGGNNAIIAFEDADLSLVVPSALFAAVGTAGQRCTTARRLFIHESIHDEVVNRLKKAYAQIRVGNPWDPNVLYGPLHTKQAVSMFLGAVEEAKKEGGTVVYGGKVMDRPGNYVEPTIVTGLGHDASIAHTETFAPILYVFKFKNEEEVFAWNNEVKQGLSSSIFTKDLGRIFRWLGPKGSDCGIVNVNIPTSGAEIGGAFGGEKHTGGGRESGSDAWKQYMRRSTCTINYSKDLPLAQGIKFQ
T2: itself; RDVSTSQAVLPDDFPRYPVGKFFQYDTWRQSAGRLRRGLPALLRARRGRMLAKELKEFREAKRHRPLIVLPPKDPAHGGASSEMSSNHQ
T3: itself; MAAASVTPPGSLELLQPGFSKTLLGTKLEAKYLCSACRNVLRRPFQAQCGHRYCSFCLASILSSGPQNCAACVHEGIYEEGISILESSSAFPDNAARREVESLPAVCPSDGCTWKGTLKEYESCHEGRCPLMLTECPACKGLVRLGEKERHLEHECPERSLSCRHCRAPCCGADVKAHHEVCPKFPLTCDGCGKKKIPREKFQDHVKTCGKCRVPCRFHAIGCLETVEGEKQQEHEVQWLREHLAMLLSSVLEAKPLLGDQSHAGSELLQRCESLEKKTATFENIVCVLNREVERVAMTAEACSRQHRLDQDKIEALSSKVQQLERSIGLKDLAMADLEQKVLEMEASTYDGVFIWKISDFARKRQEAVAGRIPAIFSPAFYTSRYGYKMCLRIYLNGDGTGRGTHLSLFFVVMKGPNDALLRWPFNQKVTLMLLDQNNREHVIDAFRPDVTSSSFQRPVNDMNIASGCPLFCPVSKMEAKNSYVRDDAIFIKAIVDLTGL
T4: itself; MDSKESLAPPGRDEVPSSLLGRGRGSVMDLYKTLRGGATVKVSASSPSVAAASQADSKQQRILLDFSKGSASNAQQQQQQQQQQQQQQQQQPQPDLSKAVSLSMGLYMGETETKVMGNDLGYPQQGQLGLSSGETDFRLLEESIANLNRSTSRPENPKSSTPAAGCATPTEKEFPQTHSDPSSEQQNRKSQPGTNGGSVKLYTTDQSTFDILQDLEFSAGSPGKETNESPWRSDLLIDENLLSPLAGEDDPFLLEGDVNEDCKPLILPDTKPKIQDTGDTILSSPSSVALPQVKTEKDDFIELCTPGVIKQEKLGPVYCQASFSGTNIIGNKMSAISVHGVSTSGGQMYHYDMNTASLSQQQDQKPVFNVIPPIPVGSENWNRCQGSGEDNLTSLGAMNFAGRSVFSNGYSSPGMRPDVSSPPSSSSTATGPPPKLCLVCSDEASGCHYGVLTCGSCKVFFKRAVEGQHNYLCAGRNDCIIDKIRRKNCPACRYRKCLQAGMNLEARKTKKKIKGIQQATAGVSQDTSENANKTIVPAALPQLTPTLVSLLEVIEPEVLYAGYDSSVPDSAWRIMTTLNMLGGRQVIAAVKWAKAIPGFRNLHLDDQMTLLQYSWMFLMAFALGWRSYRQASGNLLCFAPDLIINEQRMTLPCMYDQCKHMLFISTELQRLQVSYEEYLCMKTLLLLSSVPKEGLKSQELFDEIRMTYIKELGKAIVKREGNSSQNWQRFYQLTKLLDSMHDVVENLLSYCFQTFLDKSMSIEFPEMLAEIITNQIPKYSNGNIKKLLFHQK
B1: FUS 2-110 (Homo sapiens, UniProt P35637); sequence looked up; chain ASNDYTQQATQSYGAYPTQPGQGYSQQSSQPYGQQSYSGYSQSTDTSGYGQSSYSSYGQSQNTGYGTQSTPQGYGSTGGYGSSQSSQSSYGQQSSYPGYGQQPAPSSTS
B2: ALDH7A1 A129P (Homo sapiens); chain MSTLLINQPQYAWLKELGLREENEGVYNGSWGGRGEVITTYCPANNEPIARVRQASVADYEETVKKAREAWKIWADIPAPKRGEIVRQIGDALREKIQVLGSLVSLEMGKILVEGVGEVQEYVDICDYPVGLSRMIGGPILPSERSGHALIEQWNPVGLVGIITAFNFPVAVYGWNNAIAMICGNVCLWKGAPTTSLISVAVTKIIAKVLEDNKLPGAICSLTCGGADIGTAMAKDERVNLLSFTGSTQVGKQVGLMVQERFGRSLLELGGNNAIIAFEDADLSLVVPSALFAAVGTAGQRCTTARRLFIHESIHDEVVNRLKKAYAQIRVGNPWDPNVLYGPLHTKQAVSMFLGAVEEAKKEGGTVVYGGKVMDRPGNYVEPTIVTGLGHDASIAHTETFAPILYVFKFKNEEEVFAWNNEVKQGLSSSIFTKDLGRIFRWLGPKGSDCGIVNVNIPTSGAEIGGAFGGEKHTGGGRESGSDAWKQYMRRSTCTINYSKDLPLAQGIKFQ
B3: Igf2 E-peptide E-peptide region (Mus musculus); chain RDVSTSQAVLPDDFPRYPVGKFFQYDTWRQSAGRLRRGLPALLRARRGRMLAKELKEFREAKRHRPLIVLPPKDPAHGGASSEMSSNHQ
B4: UGT1A9 (Homo sapiens, UniProt O60656); chain GKLLVVPMDGSHWFTMRSVVEKLILRGHEVVVVMPEVSWQLGRSLNCTVKTYSTSYTLEDLDREFKAFAHAQWKAQVRSIYSLLMGSYNDIFDLFFSNCRSLFKDKKLVEYLKESSFDAVFLDPFDNCGLIVAKYFSLPSVVFARGILCHYLEEGAQCPAPLSYVPRILLGFSDAMTFKERVRNHIMHLEEHLLCHRFFKNALEIASEILQTPVTEYDLYSHTSIWLLRTDFVLDYPKPVMPNMIFIGGINCHQGKPLPMEFEAYINASGEHGIVVFSLGSMVSEIPEKKAMAIADALGKIPQTVLWRYTGTRPSNLANNTILVKWLPQNDLLGHPMTRAFITHAGSHGVYESICNGVPMVMMPLFGDQMDNAKRMETKGAGVTLNVLEMTSEDLENALKAVINDKSYKENIMRLSSLHKDRPVEPLDLAVFWVEFVMRHKGAPHLRPAAHDLTWYQYHSLDVIGFLLAVVLTVAFITFKCCAYGYRKCLGKKGRVKKAHKSKTH
UniProt Q9HC16, sequence (whole entry, looked up): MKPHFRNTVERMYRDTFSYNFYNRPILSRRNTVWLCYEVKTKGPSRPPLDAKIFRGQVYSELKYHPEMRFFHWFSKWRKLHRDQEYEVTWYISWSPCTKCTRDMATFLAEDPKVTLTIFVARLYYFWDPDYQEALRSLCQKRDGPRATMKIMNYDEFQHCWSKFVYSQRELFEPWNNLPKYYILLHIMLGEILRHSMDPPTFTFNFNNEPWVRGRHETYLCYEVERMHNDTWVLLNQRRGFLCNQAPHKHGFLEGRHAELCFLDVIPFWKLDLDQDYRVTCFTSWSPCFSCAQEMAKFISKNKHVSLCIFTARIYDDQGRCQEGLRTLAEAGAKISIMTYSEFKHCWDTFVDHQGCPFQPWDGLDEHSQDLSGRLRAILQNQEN

| Substance | tested on | assay | test system | setting | how to read | quantity | value |
| --- | --- | --- | --- | --- | --- | --- | --- |
| APOBEC3G (Homo sapiens, UniProt Q9HC16) | itself | optical tweezers |  | two-step binding model |  | rate constant k-2 | 2.8e-05 s⁻¹ |
| B1 (FUS 2-110) | itself | hydrogel binding assay |  |  |  | binding | binds |
| PYCARD (Homo sapiens, UniProt Q9ULZ3-2) | itself | real-time NMR |  | 704 µM |  | backward rate constant | 0.001 h |
| ClpX fragment T66C/P388C, Cys66-Cys388 disulfide (Escherichia coli) | itself | GFP-ssrA degradation |  | reduced with dithiothreitol, together with: ClpP | relative to: oxidized enzyme, higher = larger KM | KM increase | 20 fold |
| amyloid beta fragment | itself | SDS-PAGE immunoblot |  | trimers, lipidated apoE4 | relative to: sample without apoE, higher = more trimer remaining | relative band intensity | 130% |
| Sh C96S/C301S/C308S/C505T/I470V (Drosophila melanogaster) | itself | paired-pulse electrophysiology |  | I470V |  | recovery time from inactivation | 33 ms |
| B2 (ALDH7A1 A129P) | T1, itself | AUC |  | 20 °C |  | Kd | 5 µM |
| HLA-DRA/HLA-DRB1 heterodimer, on cells (Homo sapiens) | itself | single-particle fluorescence imaging |  | 37 °C |  | fraction of 2-particle spots | 15 ± 5% |
| STAT5A full length, exon-4 deleted isoform (Homo sapiens) | itself | Stat5 reporter | HEK | 24 h, together with: PRL 1 µg/mL | relative to: one response element, higher = more tetramerization | luciferase activity | 3.5 fold |
| F11R extracellular domain E61A/K63A | itself | atomic force spectroscopy |  | 37 °C |  | koff | 0.14 s⁻¹ |
| EGFR fragment (Homo sapiens) | itself | specific kinase activity, poly Glu:Tyr substrate | solution |  |  | dimerization KD | 0.2 µM |
| TFAM fragment K95A/Y99F/E106A/E112A/R116A, Alexa Fluor label on Cys49 (Homo sapiens) | itself | tethered particle motion |  | DNA compaction |  | RMS of bead motion | 193 nm |
| CD3E (Homo sapiens, UniProt P07766) | itself | TCCD microscopy | PM1 |  | higher = more association | association quotient | 28.4 ± 4.3 |
| B3 | T2, itself | fluorescence polarisation |  | apparent, self-association |  | Kd | 2.5 µM |
| TRAF2 (Homo sapiens, UniProt Q12933) | T3, itself | flow cytometric FRET | HeLa | live cells, two-step FRET | higher = more FRET | FRET1 | 3.9 MFI |
| ESR1 hormone-binding domain G521R | itself | SiMPull | HeLa, lysate | 4-OHT treated | higher = more dimers | spots with two-step bleaching | 60% |
| cps-6 (Caenorhabditis elegans) | itself | co-IP |  | 3 days, in animals, together with: paraquat 200 µM | relative to: non-treated animals, higher = more association | relative self-association | 56% |
| RYR1 fragment (Oryctolagus cuniculus) | itself | FRET | myotubes | in cells, puncta |  | FRET efficiency | 3.6 ± 0.4% |
| WWC1 C-terminal truncation (Mus musculus) | itself | co-IP | HEK293T |  | relative to: wild-type KIBRA, higher = more self-association | relative co-precipitation | 1 fold |
| CRYGS N15D/Q121E/N144D (Homo sapiens) | itself | SEC-MALS |  |  |  | subunits per oligomer | 2 |
| TPDYLMQLMNAKKLMSSLPNFSGIFNHLERLLDEEISRVRKDMYNDTLNGSTEK (Qki 14-67 C35S/D24A (Mus musculus, UniProt Q9QYS9)) | itself | CD thermal melting |  | 50 µM |  | melting temperature | > 85 °C |
| Pcdh15 EC1-11 (Mus musculus) (sequence not shown) | itself | AUC |  | pH 8.0, 25 °C, NaCl 150 mM, together with: CaCl2 3 mM |  | Kd | 1.8 µM |
| MMP9 proMMP-9, trimer E402A (Homo sapiens) | itself | non-reducing SDS-PAGE |  |  |  | multimer fraction | 30.3% |
| STEP61 (Rattus norvegicus) | itself | pNPP dephosphorylation |  | cortex, aged rats | relative to: young rats, higher = more activity | phosphatase activity | 47.5% |
| Nr3c1 (Mus musculus, UniProt P06537) | T4, itself | number and brightness microscopy | 3134-GR KO | nucleoplasm, in cells, together with: Cort 100 nM | relative to: monomeric control, higher = more oligomerised | molecular brightness | 1.71 fold |
| CENPA (Homo sapiens, UniProt P49450) | itself | co-IP |  |  | relative to: total CENP-molecule in input, higher = more unbound | unbound fraction | 22.5% |
| CBX5 chromoshadow domain (Homo sapiens) (sequence not shown) | itself | ITC |  | dimerization |  | Kd | 1.1 µM |
| PYCARD (Homo sapiens, UniProt Q9ULZ3) | itself | real-time NMR |  | 697 µM |  | backward rate constant | 0.12 h |
| B4 (UGT1A9) | O=c1cc(-c2cccc(O)c2)oc2ccccc12 | steady-state kinetics |  | pH 7.4, 37 °C |  | Km | 2.02 µM |

For quick reference, copied from above:
| Substance | tested on | assay | test system | setting | how to read | quantity | value |
| --- | --- | --- | --- | --- | --- | --- | --- |
| HLA-DRA/HLA-DRB1 heterodimer, on cells (Homo sapiens) | itself | single-particle fluorescence imaging |  | 37 °C |  | fraction of 2-particle spots | 15 ± 5% |
| cps-6 (Caenorhabditis elegans) | itself | co-IP |  | 3 days, in animals, together with: paraquat 200 µM | relative to: non-treated animals, higher = more association | relative self-association | 56% |
| STEP61 (Rattus norvegicus) | itself | pNPP dephosphorylation |  | cortex, aged rats | relative to: young rats, higher = more activity | phosphatase activity | 47.5% |
| RYR1 fragment (Oryctolagus cuniculus) | itself | FRET | myotubes | in cells, puncta |  | FRET efficiency | 3.6 ± 0.4% |
